Measured values gathered from unrelated publications.
Lines come from different studies, so protocols differ. ± marks the error that the study gave.
Matrix protein 2: Matrix protein 2 (Influenza A virus, UniProt P0DOF5)
Sequence of UniProt P0DOF5 (whole entry, looked up): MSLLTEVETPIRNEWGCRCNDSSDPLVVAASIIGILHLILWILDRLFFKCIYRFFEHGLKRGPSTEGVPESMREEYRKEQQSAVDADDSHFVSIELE
4'-phosphopantetheinyl transferase PptT: 4'-phosphopantetheinyl transferase PptT (Mycobacterium tuberculosis, UniProt O33336)
Sequence of UniProt O33336 (whole entry, looked up): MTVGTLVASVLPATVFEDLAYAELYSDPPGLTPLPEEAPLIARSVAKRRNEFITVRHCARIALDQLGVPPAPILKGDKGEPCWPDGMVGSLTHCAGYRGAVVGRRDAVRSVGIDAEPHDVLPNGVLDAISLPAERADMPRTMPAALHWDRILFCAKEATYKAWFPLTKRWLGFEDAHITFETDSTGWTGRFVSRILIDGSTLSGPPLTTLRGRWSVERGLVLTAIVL
coaD: Phosphopantetheine adenylyltransferase (coaD, Mycobacterium tuberculosis, UniProt P9WPA5)
Sequence of UniProt P21554 (whole entry, unmodified, looked up): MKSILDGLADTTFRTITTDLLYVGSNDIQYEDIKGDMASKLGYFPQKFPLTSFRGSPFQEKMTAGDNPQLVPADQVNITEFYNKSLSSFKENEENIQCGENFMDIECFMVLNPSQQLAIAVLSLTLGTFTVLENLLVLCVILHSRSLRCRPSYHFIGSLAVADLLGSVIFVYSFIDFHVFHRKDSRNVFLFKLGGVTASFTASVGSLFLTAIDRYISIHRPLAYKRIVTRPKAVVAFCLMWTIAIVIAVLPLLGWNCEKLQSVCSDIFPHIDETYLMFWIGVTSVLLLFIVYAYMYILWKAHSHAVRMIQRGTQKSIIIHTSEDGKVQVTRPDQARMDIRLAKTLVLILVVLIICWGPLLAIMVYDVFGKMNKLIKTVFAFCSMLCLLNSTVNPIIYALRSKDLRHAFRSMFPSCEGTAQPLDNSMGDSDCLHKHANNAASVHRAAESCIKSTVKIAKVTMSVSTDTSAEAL
Sequence of UniProt P9WPA5 (whole entry, looked up): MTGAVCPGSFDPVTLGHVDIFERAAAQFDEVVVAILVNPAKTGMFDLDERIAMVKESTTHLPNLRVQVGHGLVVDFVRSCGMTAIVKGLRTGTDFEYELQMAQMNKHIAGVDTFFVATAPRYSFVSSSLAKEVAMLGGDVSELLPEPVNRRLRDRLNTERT
Sequence of UniProt P34972 (whole entry, unmodified, looked up): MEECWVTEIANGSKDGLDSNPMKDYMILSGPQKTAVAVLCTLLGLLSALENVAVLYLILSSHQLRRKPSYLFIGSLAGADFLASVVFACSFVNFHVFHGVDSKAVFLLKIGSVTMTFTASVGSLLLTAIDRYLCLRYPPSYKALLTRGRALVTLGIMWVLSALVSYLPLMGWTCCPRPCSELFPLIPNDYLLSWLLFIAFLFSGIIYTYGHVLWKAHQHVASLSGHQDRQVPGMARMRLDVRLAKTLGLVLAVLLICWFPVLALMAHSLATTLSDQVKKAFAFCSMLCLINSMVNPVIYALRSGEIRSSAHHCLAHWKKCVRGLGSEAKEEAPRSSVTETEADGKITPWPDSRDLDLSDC
Sequence of UniProt P9WGM7 (whole entry, looked up): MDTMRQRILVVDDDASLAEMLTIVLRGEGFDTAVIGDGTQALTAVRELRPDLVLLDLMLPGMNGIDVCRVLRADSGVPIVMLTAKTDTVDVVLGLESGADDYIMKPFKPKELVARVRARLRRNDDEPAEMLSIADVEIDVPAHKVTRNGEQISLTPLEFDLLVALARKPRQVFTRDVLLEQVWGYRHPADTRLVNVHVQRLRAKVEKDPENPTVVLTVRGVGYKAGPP
Sequence of UniProt P32300 (whole entry, looked up): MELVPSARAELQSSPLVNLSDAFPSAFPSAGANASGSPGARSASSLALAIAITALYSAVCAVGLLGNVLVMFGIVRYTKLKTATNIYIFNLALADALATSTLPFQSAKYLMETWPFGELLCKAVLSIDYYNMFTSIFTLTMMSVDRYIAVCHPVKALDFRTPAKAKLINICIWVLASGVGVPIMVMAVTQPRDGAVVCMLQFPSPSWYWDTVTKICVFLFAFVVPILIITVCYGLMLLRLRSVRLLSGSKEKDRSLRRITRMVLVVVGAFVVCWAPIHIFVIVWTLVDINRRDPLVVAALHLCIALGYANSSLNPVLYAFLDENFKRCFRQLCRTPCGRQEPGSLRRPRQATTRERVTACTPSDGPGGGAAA
Sequence of UniProt I6WXK4 (whole entry, looked up): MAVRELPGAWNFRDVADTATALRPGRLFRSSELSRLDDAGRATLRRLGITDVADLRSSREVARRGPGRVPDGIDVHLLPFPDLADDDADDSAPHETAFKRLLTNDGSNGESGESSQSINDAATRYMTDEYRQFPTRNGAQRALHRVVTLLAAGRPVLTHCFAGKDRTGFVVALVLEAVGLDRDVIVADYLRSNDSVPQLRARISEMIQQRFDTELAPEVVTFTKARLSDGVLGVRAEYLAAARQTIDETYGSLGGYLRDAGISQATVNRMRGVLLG
Sequence of UniProt P25084 (whole entry, looked up): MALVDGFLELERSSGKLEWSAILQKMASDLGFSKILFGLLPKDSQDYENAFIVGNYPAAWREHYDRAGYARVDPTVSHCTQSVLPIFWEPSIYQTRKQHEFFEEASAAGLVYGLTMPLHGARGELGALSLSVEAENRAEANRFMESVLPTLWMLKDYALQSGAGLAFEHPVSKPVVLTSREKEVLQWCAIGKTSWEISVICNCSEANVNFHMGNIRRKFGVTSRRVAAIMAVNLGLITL
Sequence of UniProt P19969 (whole entry, looked up): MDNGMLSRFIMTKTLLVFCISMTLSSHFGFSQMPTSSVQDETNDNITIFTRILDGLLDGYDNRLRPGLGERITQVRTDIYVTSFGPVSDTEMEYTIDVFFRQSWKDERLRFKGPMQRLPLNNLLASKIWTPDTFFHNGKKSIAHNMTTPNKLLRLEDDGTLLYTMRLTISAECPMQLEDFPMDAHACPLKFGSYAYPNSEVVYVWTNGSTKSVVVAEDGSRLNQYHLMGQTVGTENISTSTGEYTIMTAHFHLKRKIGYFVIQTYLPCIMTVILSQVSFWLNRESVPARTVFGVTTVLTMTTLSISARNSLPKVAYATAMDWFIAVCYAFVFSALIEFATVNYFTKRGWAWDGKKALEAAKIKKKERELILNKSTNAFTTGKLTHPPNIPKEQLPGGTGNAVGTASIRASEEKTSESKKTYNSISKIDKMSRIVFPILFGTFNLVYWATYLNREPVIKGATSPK
Sequence of UniProt P18508 (whole entry, looked up): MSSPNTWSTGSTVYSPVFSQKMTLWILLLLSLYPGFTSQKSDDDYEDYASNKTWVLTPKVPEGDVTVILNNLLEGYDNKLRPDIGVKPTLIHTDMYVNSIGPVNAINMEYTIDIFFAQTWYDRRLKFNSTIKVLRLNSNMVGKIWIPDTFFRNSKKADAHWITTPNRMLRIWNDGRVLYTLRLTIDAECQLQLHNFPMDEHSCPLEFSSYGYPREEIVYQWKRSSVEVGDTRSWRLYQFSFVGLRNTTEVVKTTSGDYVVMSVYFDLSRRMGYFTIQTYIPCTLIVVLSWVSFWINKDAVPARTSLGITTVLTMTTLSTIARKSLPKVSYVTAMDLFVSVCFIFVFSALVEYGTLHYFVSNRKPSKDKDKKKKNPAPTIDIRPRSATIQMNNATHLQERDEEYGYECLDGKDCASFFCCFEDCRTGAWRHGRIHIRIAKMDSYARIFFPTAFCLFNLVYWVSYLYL
Sequence of UniProt P43140 (whole entry, looked up): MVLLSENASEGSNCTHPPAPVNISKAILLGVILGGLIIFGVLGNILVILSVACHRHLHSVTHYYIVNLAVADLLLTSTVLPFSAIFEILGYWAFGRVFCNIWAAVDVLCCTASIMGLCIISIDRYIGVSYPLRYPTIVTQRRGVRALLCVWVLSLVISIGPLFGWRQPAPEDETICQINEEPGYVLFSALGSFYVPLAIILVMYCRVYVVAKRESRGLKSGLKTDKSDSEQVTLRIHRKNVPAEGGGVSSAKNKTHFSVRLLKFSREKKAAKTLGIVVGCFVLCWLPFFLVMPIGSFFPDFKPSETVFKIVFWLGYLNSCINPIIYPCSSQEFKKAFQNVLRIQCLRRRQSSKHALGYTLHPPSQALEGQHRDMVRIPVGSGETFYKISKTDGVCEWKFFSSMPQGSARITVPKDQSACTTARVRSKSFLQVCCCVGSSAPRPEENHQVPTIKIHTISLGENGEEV

| Structure (SMILES) | target | test | system | setting | how to read | quantity | value |
| --- | --- | --- | --- | --- | --- | --- | --- |
| c1csc(CNC23CC4CC(CC(C4)C2)C3)c1 | Matrix protein 2 | ion current, two-electrode voltage clamp | – | 100 µM | – | inhibition | 78% |
| Cc1nc(=O)c2cc(CN(C)c3ccc(C(=O)N[C@H](CCC(=O)O)C(=O)O)s3)ccc2[nH]1 | 4'-phosphopantetheinyl transferase PptT | enzyme activity, inhibitor, fluorescence polarization | – | – | – | Hill slope | 2 |
| Cc1cn(CCC(=O)O)c2ccccc12 | coaD | competition ITC | – | – | – | ligand efficiency | 0.28 |
| O=C1CC(=O)N(c2ccccc2)c2cc(Cl)ccc2N1 | Gabrg2/Gabra5, with β2 subunit (Rattus norvegicus, UniProt P18508+P19969) | GABA current potentiation, positive allosteric modulator, whole-cell patch clamp | HEK293 | added: GABA at EC10 | – | Emax | 148 ± 15% |
| CCCCCn1cc(C(=O)c2ccc3c(c2)CC(C)(C)C3)c2ccccc21 | CNR1 (Homo sapiens, UniProt P21554, I267L) | Gαi1 engagement, agonist, BRET | – | – | baseline: wild type | Emax decrease | ~30% |
| Cc1nc(=O)c2cc(CN(C)c3ccc(C(=O)N[C@@H](CCc4nn[nH]n4)C(=O)O)s3)ccc2[nH]1 | 4'-phosphopantetheinyl transferase PptT | enzyme activity, inhibitor, fluorescence polarization | – | – | – | Hill slope | 1.3 |
| O=S(=O)(O)CCOCC1CSSCC(COCCS(=O)(=O)O)SS1 (stereo not drawn) | DNA-binding response regulator MtrA, C-terminal domain (mtrA, Mycobacterium tuberculosis, UniProt P9WGM7) | DNA binding | – | 100 µM | – | inhibition | > 50% |
| Cc1nc(=O)c2cc(CN(C)c3ccc(C(=O)NCC(=O)O)s3)ccc2[nH]1 | 4'-phosphopantetheinyl transferase PptT | enzyme activity, inhibitor, fluorescence polarization | – | – | – | Hill slope | 1.1 |
| N[C@@H](CCC(=O)N[C@@H](CS[Se]Cc1ccc(C(=O)Nc2cc(C(F)(F)F)c(Br)c(C(F)(F)F)c2)cc1)C(=O)NCC(=O)O)C(=O)O | ptpB (Mycobacterium tuberculosis, UniProt I6WXK4) | enzyme activity, inhibitor | – | added: glutathione 1 mM | baseline: IC50 over mPTPA (M. tuberculosis) | selectivity ratio | > 100 |
| COC(=O)CC[C@H](NC(=O)c1ccc(N(C)Cc2ccc3[nH]c(C)nc(=O)c3c2)s1)C(=O)OC | 4'-phosphopantetheinyl transferase PptT | enzyme activity, inhibitor, fluorescence polarization | – | – | – | Hill slope | 0.7 |
| NCCc1cccc(C(F)(F)F)c1 | Amyloid-beta precursor protein, amyloid-beta 1-40 oligomers (APP, Homo sapiens, UniProt P05067) | binding, STD NMR | – | highest STD | – | STD NMR signal | 0% |
| CCOC(=O)CC[C@@H](NC(=O)c1ccc(N(C)Cc2ccc3[nH]c(C)nc(=O)c3c2)s1)C(=O)OCC | 4'-phosphopantetheinyl transferase PptT | enzyme activity, inhibitor, fluorescence polarization | – | – | – | Hill slope | 0.8 |
| COc1ccc(CNC23CC4C5CC6CC4C(C2)C(C6)C5C3)c(O)c1 | Matrix protein 2 | binding | – | – | – | kon | 378.2 ± 1.1 M⁻¹ s⁻¹ |
| CCCCCn1cc(C(=O)c2cccc3c2CC(C)(C)C3)c2ccccc21 | CNR2 (Homo sapiens, UniProt P34972, L182I) | Gαi1 engagement, agonist, BRET | – | – | baseline: reference agonist at wild-type CB2 | Emax | 17.6 ± 2.7% |
| O=C(O)c1cnn(-c2ccccc2)c1OCCCCc1c[nH]c2ccccc12 | coaD | isothermal titration calorimetry | – | – | – | ligand efficiency | 0.22 |
| CCCCCn1cc(C(=O)c2ccc3ccccc3c2)c2ccccc21 | CNR2 (Homo sapiens, UniProt P34972) | Gαi1 engagement, agonist, BRET | HEK293T | – | baseline: reference agonist | Emax | 84.5 ± 6.5% |
| Cc1nc(=O)c2cc(CN(C)c3cccc(C(=O)Nc4n[nH]c5ccccc45)c3)ccc2[nH]1 | 4'-phosphopantetheinyl transferase PptT | enzyme activity, inhibitor, fluorescence polarization | – | – | – | Hill slope | 1.1 |
| CCCCCn1cc(C(=O)c2cccc3ccccc23)c2ccccc21 | CNR1 (Homo sapiens, UniProt P21554) | Gαi1 engagement, agonist, BRET | HEK293T | – | baseline: reference agonist | Emax | 140 ± 5.6% |
| Cc1nc(=O)c2cc(CN(C)c3ccc(C(=O)NCCN4C(=O)NC(=O)[C@H]4C)s3)ccc2[nH]1 | 4'-phosphopantetheinyl transferase PptT | enzyme activity, inhibitor, fluorescence polarization | – | – | – | Hill slope | 0.7 |
| N=C(N)NCCCCCCN1CCC23c4c5ccc(O)c4OC2c2nc4ccccc4cc2CC3(O)C1C5 (stereo not drawn) | Delta-type opioid receptor, with Gi1 (Oprd1, Mus musculus, UniProt P32300) | receptor activation, agonist | – | concentration not given | – | Emax | 70% |
| CCCCCc1cc(O)c2c(c1)OC(C)(C)c1cc(O)c(C)cc1-2 | intestinal alpha-glucosidase, rat | – | – | – | baseline: compound over cannabitriol | inhibition potency ratio | 3 |
| CCCc1cn(-c2ccc(C(=O)N[C@H]3CCOC3=O)cc2)nn1 | lasR (Pseudomonas aeruginosa, UniProt P25084) | reporter gene, agonist | Escherichia coli, DH5α pJN105L/pSC11 | 100 µM | baseline: OdDHL at same concentration | activation | 1% |
| Cc1nc(=O)c2cc(CN(C)c3cccc(C(=O)N[C@@]4(C(=O)O)CCC[C@H](C(=O)O)C4)c3)ccc2[nH]1 | 4'-phosphopantetheinyl transferase PptT | enzyme activity, inhibitor, fluorescence polarization | – | – | – | Hill slope | 0.9 |
| CCOC(=O)C1C(OC(c2ccc(Cl)cc2)c2ccc(Cl)cc2)CC2CCC1N2C (single isomer, unassigned) | Adra1a (Rattus norvegicus, UniProt P43140) | binding, radioligand displacement | rat submaxillary gland | inactive if below 75% at 10000 nM, added: [3H]prazosin | – | Ki | inactive |

Excerpt of the above:
| Structure (SMILES) | target | test | system | setting | how to read | quantity | value |
| --- | --- | --- | --- | --- | --- | --- | --- |
| COC(=O)CC[C@H](NC(=O)c1ccc(N(C)Cc2ccc3[nH]c(C)nc(=O)c3c2)s1)C(=O)OC | 4'-phosphopantetheinyl transferase PptT | enzyme activity, inhibitor, fluorescence polarization | – | – | – | Hill slope | 0.7 |
| Cc1nc(=O)c2cc(CN(C)c3cccc(C(=O)Nc4n[nH]c5ccccc45)c3)ccc2[nH]1 | 4'-phosphopantetheinyl transferase PptT | enzyme activity, inhibitor, fluorescence polarization | – | – | – | Hill slope | 1.1 |
| c1csc(CNC23CC4CC(CC(C4)C2)C3)c1 | Matrix protein 2 | ion current, two-electrode voltage clamp | – | 100 µM | – | inhibition | 78% |
